# Literature values that unrelated publications cite.
# Lines come from different studies, so protocols differ. Numbers after ± are the reported error.
# UniProt Q01959, sequence (whole entry, looked up): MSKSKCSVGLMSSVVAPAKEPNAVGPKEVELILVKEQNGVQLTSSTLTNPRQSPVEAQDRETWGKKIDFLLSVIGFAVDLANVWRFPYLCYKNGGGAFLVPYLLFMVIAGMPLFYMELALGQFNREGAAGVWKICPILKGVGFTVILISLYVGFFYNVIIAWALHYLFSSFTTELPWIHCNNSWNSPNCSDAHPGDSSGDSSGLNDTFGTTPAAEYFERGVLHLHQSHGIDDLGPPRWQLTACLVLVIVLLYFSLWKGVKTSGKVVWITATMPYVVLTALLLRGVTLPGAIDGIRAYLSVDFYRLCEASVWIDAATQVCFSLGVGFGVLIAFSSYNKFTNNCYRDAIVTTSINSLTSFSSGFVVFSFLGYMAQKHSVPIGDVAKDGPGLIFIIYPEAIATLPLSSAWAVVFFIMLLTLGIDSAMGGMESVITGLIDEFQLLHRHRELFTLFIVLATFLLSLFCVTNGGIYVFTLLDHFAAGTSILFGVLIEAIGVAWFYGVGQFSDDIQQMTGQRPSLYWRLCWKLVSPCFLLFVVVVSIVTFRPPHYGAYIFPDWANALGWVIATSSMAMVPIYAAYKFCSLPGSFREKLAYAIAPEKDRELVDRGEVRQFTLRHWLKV
# UniProt Q9JI35, sequence (whole entry, looked up): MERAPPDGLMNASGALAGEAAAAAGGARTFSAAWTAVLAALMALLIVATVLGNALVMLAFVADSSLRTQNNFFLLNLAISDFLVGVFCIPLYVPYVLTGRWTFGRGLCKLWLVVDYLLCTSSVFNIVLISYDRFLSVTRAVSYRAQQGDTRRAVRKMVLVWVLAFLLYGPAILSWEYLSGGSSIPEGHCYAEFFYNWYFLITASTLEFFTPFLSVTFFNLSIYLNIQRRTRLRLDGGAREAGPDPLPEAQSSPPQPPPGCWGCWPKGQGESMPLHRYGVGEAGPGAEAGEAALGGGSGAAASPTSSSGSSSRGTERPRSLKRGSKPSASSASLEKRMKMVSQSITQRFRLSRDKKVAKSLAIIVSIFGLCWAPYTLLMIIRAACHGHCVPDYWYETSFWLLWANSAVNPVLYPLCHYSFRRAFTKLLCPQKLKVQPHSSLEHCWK
Molecule,tested on,assay,test system,conditions,how to read,endpoint,value
Nc1nc2c(ncn2COCCO)c(=O)[nH]1,,three-week survival,"mouse, intranasal HSV-1 infection",oral,,ED50,22 mg/kg
C[C@]12CC[C@@H](O)C[C@@H]1CC[C@@H]1[C@@H]2CC[C@@]2(C)[C@H]1CC[C@@]21CO1,,loss of swimming reflex,tadpoles,,,EC50,2.76 ± 0.01 µM
C[C@]1(c2nc3c(C(N)=O)cccc3[nH]2)CCCN1,,,"human, BRCA-mutated TNBC","120 mg twice daily, then monotherapy, added: carboplatin plus paclitaxel",,progression-free survival,14.5 months
COc1ccc(CC[C@H]2CCC[C@@H](CCc3ccc(OC)cc3)N2C[C@@H](O)CO)cc1 (relative stereo),,"dopamine release, inhibitor",striatal slices,added: methamphetamine,,IC50,10.6 µM
Cc1nc(N(C)C(=O)Cc2ccc(-c3ccccn3)cc2)sc1S(N)(=O)=O,,three-week survival,"mouse, intranasal HSV-2 infection",oral,,ED50,0.5 mg/kg
C[C@]1(c2nc3c(C(N)=O)cccc3[nH]2)CCCN1,,,human germline BRCA-mutated cancer,dose not given,,response rate,60%
COc1cc2c(Oc3ccc4[nH]c(C)cc4c3F)ccnc2cc1OCC1(N)CC1.Cl.Cl,,,"human, advanced NSCLC, pretreated",dose not given,,median overall survival,9.6 months
C=CC(C)=O,,dopamine vesicular uptake,striatal synaptic vesicles,added: [3H]dopamine,,IC50,717 µM
Nc1ncnc2c1nc(Br)n2C1OC2COP(O)(=S)OC2C1O (centres unmarked),PDE4D,"cyclic nucleotide hydrolysis, substrate or inhibitor, isothermal titration calorimetry",,,,Km or Ki,28.7 µM
CC(=O)O[C@@]12CO[C@@H]1C[C@H](O)[C@@]1(C)C(=O)[C@H](O)C3=C(C)[C@@H](OC(=O)[C@H](O)[C@@H](NC(=O)OC(C)(C)C)c4ccccc4)C[C@@](O)([C@@H](OC(=O)c4ccccc4)[C@H]21)C3(C)C,,,human unselected stage IV NSCLC,"dose not given, second-line after platinum chemotherapy",,objective response rate,14%
C=CCN(CC=C)CCc1c[nH]c2ccccc12,"Sodium-dependent dopamine transporter (SLC6A3, Homo sapiens, UniProt Q01959)",binding,,added: [3H]WIN35428,,Ki,1.41 µM
CCCCCCCCCCCCCCCCOP(=O)([O-])OCC[N+](C)(C)C,,,human visceral leishmaniasis Nepal,"concentration not given, 12 months",,relapse rate,20%
C[C@]12CC[C@@H]3c4ccc(O)cc4CC[C@H]3[C@@H]1CC[C@H]2O,,,rat transient MCA occlusion,"subcutaneous implant, dose not given, 24 h pretreatment",,survival rate,71%
O=[P@]1(S)OC[C@H]2O[C@@H](n3cnc4cc(Cl)c(Cl)cc43)[C@H](O)[C@@H]2O1,PDE5,"cyclic nucleotide hydrolysis, substrate or inhibitor, isothermal titration calorimetry",,,,Km or Ki,15.1 µM
COCCOCCOCCOc1ccc(C2=N[C@@](C)(C(=O)OC(C)C)CS2)c(O)c1,,,bile duct-cannulated rats,"subcutaneous, 300 µmol/kg",,iron clearing efficiency,22.1 ± 7.6%
CC1=C[C@H](O)[C@@H](O)[C@]2(C)[C@H]3[C@@H](O)[C@H](O)[C@@]4(C)OC[C@@]35[C@@H](C[C@@H]12)OC(=O)[C@H](O)[C@]54O,,,streptozotocin diabetic rats,dose not given,baseline: untreated diabetic rats,blood glucose lowering,73.6 ± 13.6%
CN1C/C(=C\c2ccc(Cl)cc2Cl)C/C(=C/c2ccc(Cl)cc2Cl)C1,,"dopamine release, inhibitor",striatal slices,added: methamphetamine,,IC50,0.38 µM
C=CCN(CC=C)CCc1c[nH]c2ccc(OC)cc12,"Histamine H3 receptor (Cavia porcellus, UniProt Q9JI35)",,,,,Ki,1.71 µM
tirzepatide,,,type 2 diabetes patients,"15 mg weekly, 40 weeks",,HbA1c change from baseline,-2.3%
CCC[C@H](C(=O)c1ccc2c(c1)OCO2)N1CCCC1,"dopamine transporter, rat","dopamine uptake, inhibitor",brain synaptosomes,,,IC50,0.382 ± 0.053 µM
